Measured values gathered from unrelated publications.
Each line is one published result; not all experiments were run side by side. ± marks the error that the study gave.

SMILES | cell line | test | conditions | scale | measurement | result
CN(Cc1cn(-c2ccc(OCCCF)cc2)nn1)S(=O)(=O)c1ccc(CN2CCOCC2)cc1 | MDA-MB-231 | Matrigel invasion, antagonist | 100 nM, 22 h, added: CXCL12 200 ng/mL | – | inhibition | 85%
C[C@]12CCC3=C(C(=O)c4occ5c4[C@]3(C)[C@H]3O[C@H]3C5=O)[C@@H]1CCC2=O | MDA-MB-231 | PI flow cytometry | concentration not given, 3 h | – | sub-G1 cells | 31.5%
[O-][S+](CCCCOc1ccc(C(=C2C3CC4CC(C3)CC2C4)c2ccc(O)cc2)cc1)CCCC(F)(F)C(F)(F)F (stereo not drawn) | MCF7 inducible ERα L536R | cell proliferation, inhibitor, MTT | 5 days | – | IC50 | 8.8 nM
O=C(Cc1cccs1)NC(B(O)O)c1cccc(C(=O)O)c1 (stereo not drawn) | Escherichia coli DH10B expressing blaADC | agar dilution | 4 µg/mL, MIC of cefotaxime, added: cefotaxime | – | MIC of cefotaxime | 1 µg/mL
N#Cc1ccc2cc3c(=O)[nH]c(=O)nc-3n(-c3cccc(-c4nnn[nH]4)c3)c2c1 | DT40 | cell growth, ATPlite | 72 h | – | GI50 | > 100 µM
O=C(Cc1cccs1)NCB(O)O | Escherichia coli DH10B expressing blaADC | agar dilution | 4 µg/mL, MIC of cefotaxime, added: cefotaxime | – | MIC of cefotaxime | 2 µg/mL
[O-][S+](CCCCOc1ccc(C(=C2C3CCCC2CCC3)c2ccc(O)cc2)cc1)CCCC(F)(F)C(F)(F)F (stereo not drawn) | MCF7 inducible ERα L536R | cell proliferation, inhibitor, MTT | 5 days | – | IC50 | 9.7 nM
O=C(Nc1ccccc1OS(=O)(=O)c1ccc(OC(F)(F)F)cc1)c1cnccn1 | MCF7 transfected with P2X7R | cell death, antagonist, flow cytometry | 5 µM, 18 h, added: Bz-ATP | relative to: control | propidium iodide positive cells | 35%
CCCCCCCCCCCCNC(=O)N[C@H](C(=O)N[C@H]1/C=C/CCNC(=O)/C=C/[C@H](C)NC1=O)C(C)C | Granta bortezomib-resistant | cell viability | – | relative to: EC50 resistant over parental Granta | resistance index | 2 ± 0.1
CN1CCN(c2ccc(-c3cccc(CN4CCN(CCNC(=O)CCCCCCCNc5cccc6c5C(=O)N(C5CCC(=O)NC5=O)C6=O)CC4)c3)cc2NC(=O)c2c[nH]c(=O)cc2C(F)(F)F)CC1 (stereo not drawn) | MV4;11 and RS4;11 cells | degrader, chromatin fraction immunoblot, item: MLL, RBBP5, Menin | 0.5 µM, 4 days | relative to: OICR-9429 or pomalidomide | chromatin-bound protein level | decreased
Cc1nn(C)c2c(C(C(=O)O)N3CC(OCCCCc4ccc5c(n4)NCCC5)C3)cccc12 (stereo not drawn) | PAH PASMCs | Western blot, item: MCM2, survivin | concentration not given, 48 h | – | protein level | decreased
COc1ccc2c(c1)c(CC(=O)NCCCCNC(=O)CCC(=O)OC1c3cc4c(cc3C(c3cc(OC)c(OC)c(OC)c3)C3C(=O)OCC13)OCO4)c(C)n2C(=O)c1ccc(Cl)cc1 (stereo not drawn) | 1483 HNSCC cells | cell number, WST-1 | 48 h | – | EC50 | 62 nM
O=S(=O)(NCc1[nH]nnc1CNC1CCCCC1)c1ccc(Cl)c(Cl)c1 | Escherichia coli BL21 expressing VIM-2 | – | 10 µM, added: imipenem | relative to: imipenem alone | imipenem MIC fold reduction | 3 fold
Cc1ccc(C(C)C)cc1Oc1nccc(-c2c(-c3ccc(C(F)(F)F)cc3)ncn2[C@H]2CC[C@@H](N)C2)n1 | TSEC | qPCR, item: CXCL1 | 1.25 µM, added: LPS | – | mRNA level | decreased
CC(C)C(C(=O)N(Cc1ccc(C2CCCCC2)cc1)c1ccc(C(=O)O)cc1)N(C)S(=O)(=O)c1c(F)c(F)c(F)c(F)c1F (stereo not drawn) | Panc1005 | cell viability, MTS | 72 h | – | ED50 | 2.4 ± 0.2 µM
Cc1ncsc1-c1ccc([C@H](C)NC(=O)[C@@H]2C[C@@H](O)CN2C(=O)[C@@H](NC(=O)COCCOCCOCCOCCNC(=O)c2ccc(CN3CCN(S(=O)(=O)c4ccc(NC(=S)NCc5cccnc5)cc4)CC3)cc2)C(C)(C)C)cc1 | A2780 | – | concentration not given, 24 h | – | NAD+ level | decreased
O=C(NNC(=S)Nc1cccc(C(F)(F)F)c1)c1cccn1-c1ccc(F)cc1 | HeLa, transfected luciferase | protein folding, item: wild type firefly luciferase | above 5 µM | – | luciferase activity | decreased
COc1ccc(C(SC[C@H](N)C(=O)NCCOCCNC(=O)c2ccc(-c3c4ccc(=N)c(S(=O)(=O)O)c-4oc4c(S(=O)(=O)O)c(N)ccc34)c(C(=O)O)c2)(c2ccccc2)c2ccccc2)cc1 | HeLa | mitotic arrest | 4 h | – | EC50 | 5400 nM

For quick reference, copied from above:
SMILES | cell line | test | conditions | scale | measurement | result
O=C(Nc1ccccc1OS(=O)(=O)c1ccc(OC(F)(F)F)cc1)c1cnccn1 | MCF7 transfected with P2X7R | cell death, antagonist, flow cytometry | 5 µM, 18 h, added: Bz-ATP | relative to: control | propidium iodide positive cells | 35%
C[C@]12CCC3=C(C(=O)c4occ5c4[C@]3(C)[C@H]3O[C@H]3C5=O)[C@@H]1CCC2=O | MDA-MB-231 | PI flow cytometry | concentration not given, 3 h | – | sub-G1 cells | 31.5%
